# Measurements gathered from unrelated publications.
# Numbered parts are unrelated; each lists some results of a single study.

# Block 1
# Target: RING finger protein unkempt homolog, zinc fingers 1-6, GST-SBP tag (UNK, Homo sapiens, UniProt Q9C0B0, residues 30-357)
# Technique: RNA Bind-n-Seq
# Form: RNA
# Sample: in vitro
# Tested at: not given
# Setting: RNA with constant flanks, ends assumed
# Relative to: input RNA pool
# Direction: higher = stronger binding
# Target sequence (chain): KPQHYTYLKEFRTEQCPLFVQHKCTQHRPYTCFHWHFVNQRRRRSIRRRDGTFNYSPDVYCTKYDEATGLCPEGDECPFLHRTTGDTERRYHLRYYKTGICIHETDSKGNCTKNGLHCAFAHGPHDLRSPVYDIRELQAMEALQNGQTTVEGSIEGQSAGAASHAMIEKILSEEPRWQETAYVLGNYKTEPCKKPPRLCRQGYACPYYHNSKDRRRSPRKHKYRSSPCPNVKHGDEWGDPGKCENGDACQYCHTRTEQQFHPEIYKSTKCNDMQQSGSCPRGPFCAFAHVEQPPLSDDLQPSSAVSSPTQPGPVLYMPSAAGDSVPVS
Oligonucleotide,bound/input enrichment [ratio]
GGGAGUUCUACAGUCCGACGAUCUAUAGCACUGAAUAAAUGAUGCAAGUUGUCAAUGGAUGAGUGAUCAACUAAUAGCUCUGCCCGUAAUUGAUUUAUUUUUCUUCAAUAAAGUUGCAUAAACCAAUGAGUUAGCUGCCUGGACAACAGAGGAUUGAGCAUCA,1.04
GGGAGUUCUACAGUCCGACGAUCUGUCCACAAGUGGCCGACAUGGAACAUGCUGAGCAGUGGCUCCUCUGAAUGUUCACUUUAUCCGUCAUGUAUAUUUUAAAUGCUAACAUUUGAUGAAUGUAAGUUUCCACAUUGUUGCUGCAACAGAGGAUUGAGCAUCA,0.102
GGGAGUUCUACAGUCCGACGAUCUGUGUCCACAUAUUUGUCCAUUUGUCUGUGUACAAUCAGUCCUGGUGAUCACAUGGACUAUACCGUCCACAUCUCUGUAUCUUGCUGGAAAGAACCCAAAGGAGCAUCGUAUGGACACUUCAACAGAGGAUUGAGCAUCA,0.249
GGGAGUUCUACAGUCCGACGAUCACCGCAUUCAUAGUAGAAAGAGACUUCGGCGGAAUCACUAAUGGGAAACCUGAAGAUAAAUCCGGCAUUCGAGGCUCCAACACAUGUGAGGUCCAUUUUGAAAAUACCAGAGUGCCUGUGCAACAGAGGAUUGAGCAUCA,0.169
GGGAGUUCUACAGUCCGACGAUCUCUAGGCAUUCAAGAUCUCGUAGCAGGCACAGAUUGUCUAGAUCCAGAAGUCGUCAUUCCCGUAUUUCUCCUAGCACACUAACUCUGAAGAGUAGCCUGGCAGCUGAAUUGAACAAGAAUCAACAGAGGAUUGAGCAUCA,0.198
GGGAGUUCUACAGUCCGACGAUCUGGGCGCAGCAGUGUGGGGACACUGCUCUUGGAUGCCCUGGCUUUCUCCUGAAAUCGUGCCUCCGCUUCAGUCUUGCAGCUAUCAGGAUGGGGUGAAGCUGUGGUGCUGCCCCCCACCCUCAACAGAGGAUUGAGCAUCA,0.102
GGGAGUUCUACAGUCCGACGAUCGAAGCAAGAGCUUUUGCAGAAAAGAAUGGUUUGUCAUUCAUUGAAACUUCGGCCCCCGACUCUACAAAUGUAGAAGCUGCUUUUCAGACAAUUUUAACAGAGAUUUACCGCAUUGUUUCUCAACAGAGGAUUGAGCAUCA,0.291
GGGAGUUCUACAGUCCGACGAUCGCCCAAGCUUGUCCCUGAACCACUGUGUGCCCAUAUCCUAGAGAAGGGGAGGGAGGGAGAACCGACAGAAUAUUUAUUACAAAUGCUAGAAAUAUAUUUAUUAUAUUAGGAAUCUCAUUUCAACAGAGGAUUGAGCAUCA,15
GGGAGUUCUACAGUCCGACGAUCGCAGGUAUUCAGUACACAAUGCAGGCAUUAGUUUCUCAGUUAAAAAACAAGGAGAGACAGCCGCUGAUGUUAGGACACUACCCAAUGCCUCAACCGUGGACAAUAUUCGCUCCAUCUUUGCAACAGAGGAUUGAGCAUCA,0.0736
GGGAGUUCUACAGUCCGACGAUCUGGCAAAUUUGUAUCAGUAAUUUGAAAAUGAGAUAUUAGGAAAAACCAAUUCUUCUUAAAUUCCGUUCAUCUUUCUUUAAAAGAACAUUAAAUGUAACCAUUUUGUCAGAUCCAUGUAUUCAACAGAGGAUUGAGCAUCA,0.372
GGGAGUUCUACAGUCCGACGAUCCCUCCUUUUGCAACUGGACUGCCUCACUAUGGACAUAUACUUGCGGGUACAAUUAAAGAUACCGUUACAAGAUAUGCUCACCAGAGUGGGUUUCAUGUUGACAGAAGAUUUGGAUGGGAUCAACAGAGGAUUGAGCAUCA,0.102

# Block 2
# Target: Histone acetyltransferase KAT6A, winged helix 1, GST fusion (KAT6A, Homo sapiens, UniProt Q92794, residues 1-85)
# Technique: protein binding microarray
# Form: double-stranded DNA, one strand shown
# Sample: in vitro
# Tested at: not given
# Setting: 8-mer, flanks averaged, mean of 2 arrays, mostly near background
# Relative to: not given
# Direction: higher = stronger binding
# Construct (chain): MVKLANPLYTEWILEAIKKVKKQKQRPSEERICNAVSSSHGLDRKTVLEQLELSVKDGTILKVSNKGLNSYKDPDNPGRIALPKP
Oligonucleotide,E-score
TAAGCTGA,-0.0547
CTCAAGTC,-0.172
ATACCGCG,0.378
GAGTGAAC,-0.0548
GTAGGCAC,0.0134
CCGCTTCA,0.231
GGAGCATA,-0.0575
CATCATAG,-0.21
CACTAGCC,0.264
AATACTGG,-0.247
AGGTGCAC,-0.0758
CTGTCGAA,-0.0789
ACACCACG,-0.0728
AAGTTAGC,-0.0254
GCCTGAAC,-0.0325
TGTTACAA,-0.123
GCAATCAC,0.00327
GAAAGCAC,-0.292
ATTCTAGA,-0.24
GCTCTTAC,0.0154
ACGAGACA,-0.164
TACAGTCA,-0.143
AACCTCTT,0.0114

# Block 3
# Target: Interferon regulatory factor 5, full length, phosphomimetic (IRF5, Homo sapiens, UniProt Q13568-2, residues 1-514, S451D/S453D/S456D/S462D)
# Technique: protein-binding microarray
# Form: double-stranded DNA, one strand shown
# Sample: in vitro
# Tested at: 940 nM top
# Setting: 60-bp whole probe
# Together with: salmon DNA 0.4 mg/ml
# Relative to: random background probes
# Direction: higher = stronger binding
# All sequences stand within: GCCTAGCAC … GTCTTGATTCGCTTGACGCTGCTG
Oligonucleotide,fitted relative affinity [z-score]
TGTGGCTTAGTTTGTCAAAAAGTGCTA,-0.221
TTAGGACTGGGTATCGGTTGGTGCTAG,3.52
TTAGATTTCAGTTTCGATAAGTGCTAG,8.54
AACGATATCAGACTGGAGACGTGCTAG,-0.121
GACGGTTTCCTTTTCCTGAAGTGCTAG,1.96
TCACACATGCATCTCCCACTGTGCTAG,0.597
GACGATATCGGGTTTCGGGACGTGCTA,2.56
TTAGAACTGAGTCTCCATTAGTGCTAG,-0.255
GACGAACTGGGACTGGAGACGTGCTAG,-0.597
AAGACCATCCTGTGTCTTAAAGTGCTA,0.00188
TACGGTATCGGGACTGGGGACGTGCTA,2.66
GACGAACCGGGGTATCGAGACGTGCTA,0.951
GACGATTCCCGTTTCGAGACGTGCTAG,1.72
TCATTTTTTTTTTCTGAACTGTGCTAG,1.91
TTTGGTCTCCTTTTCCTTTAGTGCTAG,1.68
GACGGTATCGACACTGGGGACGTGCTA,3.85
TTACGTTTCGGTTCCGGTTAGTGCTAG,9.93
TCATGCTTTCCTTTATGACTGTGCTAG,1.37
TTAGGACTGGGGCTTCGGTTAGTGCTA,-0.476
GACGCTATCGGTCTCGGGACGTGCTAG,1.43
GTAGGTTTCGGTCTCGGTTAGTGCTAG,14.5

# Block 4
# Target: PABPC1L2, full length, GST fusion (mouse, UniProt A0ABA7IW68)
# Technique: RNAcompete
# Form: RNA
# Sample: in vitro
# Tested at: 20 nM
# Setting: 7-mer, probes averaged, single round
# Relative to: mean of 7-mers
# Direction: higher = stronger binding
# Target sequence (chain): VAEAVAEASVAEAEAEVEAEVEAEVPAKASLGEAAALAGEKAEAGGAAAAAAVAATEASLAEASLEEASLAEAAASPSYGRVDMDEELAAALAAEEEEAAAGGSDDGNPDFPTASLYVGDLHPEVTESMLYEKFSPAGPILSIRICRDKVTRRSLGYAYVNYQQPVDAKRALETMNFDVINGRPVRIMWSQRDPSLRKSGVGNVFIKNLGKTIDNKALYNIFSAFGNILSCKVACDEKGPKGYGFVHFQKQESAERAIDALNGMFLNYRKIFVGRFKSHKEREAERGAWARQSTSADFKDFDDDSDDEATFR
Oligonucleotide,7-mer Z-score
ACUUUUC,-0.298
CUGGGAA,0.131
ACAGGCU,-0.0174
AUGGCCA,-0.144
GAGCUGU,-0.255
CAGGUGA,0.000733
UCGCGAA,-0.146
AACACUC,0.111
CCCUUAU,-0.418
CAUAGCU,-0.197
CGGUCUG,-0.267
AGAUGCG,-0.155
AGUCGGU,-0.0989
UUACUAC,-0.313
UAAAGGG,0.932
CAGUGCU,-0.182
GAGCGCU,-0.233
UGCUCGA,-0.235

# Single results of other studies
Substance,target,test,system,setting,scale,endpoint,result
"PhoQ, residues 284 288 289 292 302 303 SCEHLI","PhoP, residues 12 14 15 18 19 LQHIR (Escherichia coli, UniProt P23836)","Sort-seq, refers to: YFP reporter",E. coli,"PhoQ-PhoP variant library, together with: 10 µM Mg2+","relative to: high Mg2+ state, higher = stronger signaling",fold induction,2.81

# For quick reference, copied from above (block 2):
Oligonucleotide,E-score
AGGTGCAC,-0.0758
CTGTCGAA,-0.0789
ACACCACG,-0.0728
AAGTTAGC,-0.0254
GCCTGAAC,-0.0325
TGTTACAA,-0.123
GCAATCAC,0.00327
